Literature values, collected from citations in different studies.
Each line is one published result; not all experiments were run side by side. ± gives the spread as reported.
UniProt P33981, sequence (whole entry, looked up): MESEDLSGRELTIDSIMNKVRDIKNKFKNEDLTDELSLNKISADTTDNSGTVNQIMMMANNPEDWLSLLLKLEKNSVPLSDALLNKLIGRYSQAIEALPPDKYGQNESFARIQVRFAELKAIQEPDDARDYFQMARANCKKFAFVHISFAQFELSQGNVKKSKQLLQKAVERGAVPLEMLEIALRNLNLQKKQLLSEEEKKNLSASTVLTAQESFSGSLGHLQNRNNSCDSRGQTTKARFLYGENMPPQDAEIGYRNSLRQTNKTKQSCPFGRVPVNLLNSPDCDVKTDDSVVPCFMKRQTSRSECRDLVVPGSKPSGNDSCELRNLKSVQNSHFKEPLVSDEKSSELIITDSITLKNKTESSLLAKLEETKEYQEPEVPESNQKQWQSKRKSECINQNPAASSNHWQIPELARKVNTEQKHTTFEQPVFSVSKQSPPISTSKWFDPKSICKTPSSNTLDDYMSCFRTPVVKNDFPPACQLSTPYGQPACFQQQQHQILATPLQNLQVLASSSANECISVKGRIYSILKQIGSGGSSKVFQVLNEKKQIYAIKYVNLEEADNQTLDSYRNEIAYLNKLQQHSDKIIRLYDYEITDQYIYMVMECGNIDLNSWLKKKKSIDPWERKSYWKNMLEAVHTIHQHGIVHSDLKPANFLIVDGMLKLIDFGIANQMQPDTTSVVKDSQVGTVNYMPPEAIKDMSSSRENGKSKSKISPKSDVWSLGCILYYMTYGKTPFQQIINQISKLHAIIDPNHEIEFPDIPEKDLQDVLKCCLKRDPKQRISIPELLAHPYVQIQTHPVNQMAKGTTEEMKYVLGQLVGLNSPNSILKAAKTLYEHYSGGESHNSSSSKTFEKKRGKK
UniProt Q8WTS6, sequence (whole entry, looked up): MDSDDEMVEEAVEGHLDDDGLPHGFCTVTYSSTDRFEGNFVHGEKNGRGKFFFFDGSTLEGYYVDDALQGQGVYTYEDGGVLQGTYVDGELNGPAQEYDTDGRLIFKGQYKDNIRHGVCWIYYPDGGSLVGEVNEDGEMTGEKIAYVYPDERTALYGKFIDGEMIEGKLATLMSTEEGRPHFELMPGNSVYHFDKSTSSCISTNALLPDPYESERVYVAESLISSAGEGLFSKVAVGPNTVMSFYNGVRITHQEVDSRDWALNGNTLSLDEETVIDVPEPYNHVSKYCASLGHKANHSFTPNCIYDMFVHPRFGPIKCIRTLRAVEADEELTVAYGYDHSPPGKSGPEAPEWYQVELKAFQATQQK
UniProt P42336, sequence (whole entry, unmodified, looked up): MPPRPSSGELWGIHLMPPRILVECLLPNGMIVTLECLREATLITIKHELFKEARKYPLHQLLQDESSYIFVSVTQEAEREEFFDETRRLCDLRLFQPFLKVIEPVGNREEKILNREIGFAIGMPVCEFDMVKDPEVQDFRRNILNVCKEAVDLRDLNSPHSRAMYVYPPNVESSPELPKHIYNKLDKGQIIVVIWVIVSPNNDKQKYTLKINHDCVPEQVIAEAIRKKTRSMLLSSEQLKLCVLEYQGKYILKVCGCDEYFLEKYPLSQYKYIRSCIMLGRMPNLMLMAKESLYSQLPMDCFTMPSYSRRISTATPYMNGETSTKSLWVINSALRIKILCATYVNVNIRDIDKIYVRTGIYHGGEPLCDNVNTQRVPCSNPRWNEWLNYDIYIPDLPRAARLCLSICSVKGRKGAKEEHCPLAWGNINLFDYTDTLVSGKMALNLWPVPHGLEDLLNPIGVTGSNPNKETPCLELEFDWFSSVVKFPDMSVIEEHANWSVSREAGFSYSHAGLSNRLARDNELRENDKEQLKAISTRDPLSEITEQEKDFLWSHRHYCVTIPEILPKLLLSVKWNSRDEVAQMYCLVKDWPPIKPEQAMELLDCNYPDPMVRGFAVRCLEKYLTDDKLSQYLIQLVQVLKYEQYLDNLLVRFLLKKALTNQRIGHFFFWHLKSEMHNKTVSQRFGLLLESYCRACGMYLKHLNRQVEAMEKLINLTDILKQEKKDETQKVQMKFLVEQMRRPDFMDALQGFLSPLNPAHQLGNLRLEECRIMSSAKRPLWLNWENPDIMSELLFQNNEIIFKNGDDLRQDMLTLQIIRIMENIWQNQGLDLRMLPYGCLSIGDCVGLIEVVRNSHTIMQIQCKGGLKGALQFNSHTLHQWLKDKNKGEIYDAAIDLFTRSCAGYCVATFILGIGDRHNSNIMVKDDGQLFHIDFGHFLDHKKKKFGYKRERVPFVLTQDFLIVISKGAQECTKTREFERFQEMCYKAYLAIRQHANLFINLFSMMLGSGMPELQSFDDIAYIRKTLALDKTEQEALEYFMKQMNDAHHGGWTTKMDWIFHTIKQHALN

SMILES | tested on | test | system | setting | scale | endpoint | result
COc1ccccc1Oc1cccc(CN2CCC(NC(=O)C3CC(=O)Nc4ccccc43)CC2)c1 (stereo not shown) | human CCR8 F290A mutant (TM7) | IP accumulation, agonist |  |  |  | EC50 | 29 nM
CCCCC(CC)C(=O)O (stereo not shown) | CALUX reporter cell lines | reporter gene |  | cell-total, maximum across |  | EC10 | 70000 nM
CC(C)c1ccc(Nc2ncnc3sc(Nc4c(Cl)cccc4Cl)nc23)cc1 | TRPV1 | calcium flux, antagonist | HEK293 | with: capsaicin |  | IC50 | 10 nM
Nc1cc(C(F)(F)F)c(-c2nc(N3CCOCC3)nc(N3CCOCC3)n2)cn1 | A-427 |  |  |  |  | GI50 | 753 nM
CCNS(=O)(=O)c1ccc(OC)cc1C1(O)CCN(Cc2cccc(Oc3ccccc3OC)c2)CC1 | human CCR8 Y114A mutant (TM3) | IP accumulation, agonist |  |  |  | EC50 | 191 nM
O=C(NCc1ccc(Cl)c(Cl)c1)Nc1cccc2cnccc12 | TRPV1 | calcium flux, antagonist | HEK293 | with: capsaicin |  | IC50 | 4 nM
CCN(c1cc(-c2ccc(CN3CCOCC3)cc2)cc(C(=O)NCc2c(C)cc(C)[nH]c2=O)c1C)C1CCOCC1 | Histone-lysine N-methyltransferase SETD7 (SETD7, Homo sapiens, UniProt Q8WTS6) | enzyme activity, inhibitor |  | 1 µM |  | inhibition | 4 ± 3%
FC(F)(F)c1ccc(Nc2ncnc3c2CCN(c2ncccc2C(F)(F)F)C3)cc1 | TRPV1 | calcium flux, antagonist | HEK293 | with: capsaicin |  | IC50 | 15 nM
CN(C)C(=O)c1cc2cnc(Nc3ccc(N4CCNCC4)cn3)nc2n1C1CCCC1 |  |  | human | 600 mg single dose, with: rifampicin 600 mg daily for 14 days | reference: compound alone | decrease in AUCinf | 89%
O=C(Nc1cccc2cnccc12)NC1CCc2cc(F)ccc2C1Cc1ccccc1 (stereo not shown) | TRPV1 | calcium flux, antagonist | HEK293 | with: capsaicin |  | IC50 | 12 nM
COc1ccccc1Oc1cccc(CN2CCC(NC(=O)C(CCN3CCCC3)c3ccccc3)CC2)c1 (stereo not shown) | human CCR8 V109A mutant (TM3) | IP accumulation, agonist |  |  |  | EC50 | 2.6 nM
Cc1c(C#N)cccc1[C@@H](C)Nc1nnc(C)c2cnc(N3CCOCC3)cc12 | DLD-1 | 3D cell viability |  | 14 d |  | IC50 | 197 ± 156 nM
COc1cc2c(Oc3ccc4[nH]c(C)cc4c3F)ccnc2cc1OCC1(N)CC1 |  |  | human, fasted | oral, 5 mg |  | MRT(0-t) | 86 ± 6.5 h
CNC(C)C1CCC(N)C(OC2C(N)CC(N)C(OC3OCC(C)(O)C(NC)C3O)C2O)O1 (stereo not shown) | Klebsiella pneumoniae |  | clinical isolate RKI-No_908/15 |  |  | MIC | > 8 µg/mL
C=C1CC[C@H]2C(=C)CC[C@H]3C(=C)C(=O)O[C@@H]3[C@@H]12 | hepatitis B virus | HBsAg secretion | Hep3B |  |  | IC50 | 2000 nM
CC1(C)S[C@@H]2[C@H](NC(=O)[C@H](N)c3ccccc3)C(=O)N2[C@H]1C(=O)O | Klebsiella pneumoniae |  | clinical isolate RKI-No_68/16 |  |  | MIC | > 16 µg/mL
CCN(CC)CCNC(=O)c1ccc(NC(C)=O)cc1 | HepG2 | mitochondrial membrane potential |  | concentration not given, Tox21 |  | activity outcome | inactive
OCc1cc(Cl)c(Nc2nc3c(Nc4ccc(C(F)(F)F)cc4)ncnc3s2)c(Cl)c1 | TRPV1 | calcium flux, antagonist | HEK293 | with: capsaicin |  | IC50 | 1 nM
COc1ccccc1Oc1cccc(CN2CCC3(CC2)C(=O)NCN3CCc2ccccc2)c1 | human CCR8 L258A mutant (TM6) | IP accumulation, agonist |  |  |  | EC50 | 13 nM
Cc1cnc(N2CC3(CCOCC3)C2)c(C(=O)Nc2ccc(C(=O)N3CCc4cc(C(=O)Nc5c(C)cccc5F)sc4-c4ccccc43)cc2)c1 | respiratory syncytial virus | cytopathic effect | 5 subtype A clinical isolates |  |  | median IC90 | 0.00177 µg/mL
C=CC(=O)N1CCC(C(=O)NCC(=O)N2CCN(c3nc(-c4cnc(N)nc4C(F)F)nc(N4CCOCC4)n3)CC2)CC1 | Phosphatidylinositol 4,5-bisphosphate 3-kinase catalytic subunit alpha isoform (PIK3CA, Homo sapiens, UniProt P42336, Q546K) | kinase activity |  | 1 µM |  | remaining activity | 0%
Cc1cc(NC(=O)c2cccc(NC(=O)/C=C/CN(C)C)c2)ccc1Nc1nccc(-c2cccnc2)n1 | Dual specificity protein kinase TTK (TTK, Homo sapiens, UniProt P33981) | enzyme activity, inhibitor |  | 1 µM | reference: vehicle | remaining activity | 46%
COc1ccccc1Oc1cccc(CN2CCC(O)(c3ccccc3C(=O)O)CC2)c1 | human CCR8 Q91W mutant (TM2) | IP accumulation, agonist |  |  |  | EC50 | 368 nM
FC(F)(F)c1ccc(Nc2nc(N3CCOCC3)nc3c2CCN(c2ncccc2C(F)(F)F)CC3)cc1 | TRPV1 | calcium flux, antagonist | HEK293 | with: capsaicin |  | IC50 | 6 nM
C[C@H]1COCCN1c1nc(-c2cnc(N)cc2C(F)F)nc(N2CCOCC2)n1 | 769-P |  |  |  |  | GI50 | 458 nM
